Measurements collected from several papers.
± marks the error that the study gave.
AKR1C1: Aldo-keto reductase family 1 member C1 (AKR1C1, Homo sapiens, UniProt Q04828)
Chain of UniProt Q04828 (whole entry, looked up): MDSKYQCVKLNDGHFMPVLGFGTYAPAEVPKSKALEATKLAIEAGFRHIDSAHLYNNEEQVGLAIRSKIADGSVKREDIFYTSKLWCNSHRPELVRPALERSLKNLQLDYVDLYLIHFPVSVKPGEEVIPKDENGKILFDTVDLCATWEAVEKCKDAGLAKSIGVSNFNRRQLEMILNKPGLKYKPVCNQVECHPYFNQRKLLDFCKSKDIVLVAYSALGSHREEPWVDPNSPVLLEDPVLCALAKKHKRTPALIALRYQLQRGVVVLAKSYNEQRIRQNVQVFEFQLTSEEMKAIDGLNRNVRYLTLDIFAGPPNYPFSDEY
TRPV1: Transient receptor potential cation channel subfamily V member 1 (TRPV1, Homo sapiens, UniProt Q8NER1)
Chain of UniProt Q8NER1 (whole entry, looked up): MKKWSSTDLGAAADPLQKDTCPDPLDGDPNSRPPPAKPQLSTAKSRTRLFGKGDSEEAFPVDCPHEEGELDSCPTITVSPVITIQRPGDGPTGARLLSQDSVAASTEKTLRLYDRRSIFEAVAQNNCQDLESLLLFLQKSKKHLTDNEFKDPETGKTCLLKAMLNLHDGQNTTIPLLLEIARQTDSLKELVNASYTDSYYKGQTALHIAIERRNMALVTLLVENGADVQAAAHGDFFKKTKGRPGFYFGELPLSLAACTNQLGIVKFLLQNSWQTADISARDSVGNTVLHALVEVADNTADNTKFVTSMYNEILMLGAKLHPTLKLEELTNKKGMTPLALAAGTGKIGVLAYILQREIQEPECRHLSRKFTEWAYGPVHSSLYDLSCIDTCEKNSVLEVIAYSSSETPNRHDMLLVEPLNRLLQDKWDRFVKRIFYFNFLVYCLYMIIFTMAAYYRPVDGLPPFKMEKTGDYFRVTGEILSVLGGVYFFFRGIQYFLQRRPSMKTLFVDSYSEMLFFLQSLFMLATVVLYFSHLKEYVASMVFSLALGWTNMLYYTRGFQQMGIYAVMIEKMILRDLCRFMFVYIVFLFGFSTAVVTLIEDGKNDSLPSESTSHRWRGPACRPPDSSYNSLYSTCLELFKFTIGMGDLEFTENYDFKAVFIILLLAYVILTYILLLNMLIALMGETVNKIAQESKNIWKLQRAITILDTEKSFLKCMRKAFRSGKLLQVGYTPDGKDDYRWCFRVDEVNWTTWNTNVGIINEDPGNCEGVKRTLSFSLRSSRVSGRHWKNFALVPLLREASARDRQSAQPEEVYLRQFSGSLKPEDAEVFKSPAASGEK
IDO1: Indoleamine 2,3-dioxygenase 1 (IDO1, Homo sapiens, UniProt P14902)
Chain of UniProt P14902 (whole entry, looked up): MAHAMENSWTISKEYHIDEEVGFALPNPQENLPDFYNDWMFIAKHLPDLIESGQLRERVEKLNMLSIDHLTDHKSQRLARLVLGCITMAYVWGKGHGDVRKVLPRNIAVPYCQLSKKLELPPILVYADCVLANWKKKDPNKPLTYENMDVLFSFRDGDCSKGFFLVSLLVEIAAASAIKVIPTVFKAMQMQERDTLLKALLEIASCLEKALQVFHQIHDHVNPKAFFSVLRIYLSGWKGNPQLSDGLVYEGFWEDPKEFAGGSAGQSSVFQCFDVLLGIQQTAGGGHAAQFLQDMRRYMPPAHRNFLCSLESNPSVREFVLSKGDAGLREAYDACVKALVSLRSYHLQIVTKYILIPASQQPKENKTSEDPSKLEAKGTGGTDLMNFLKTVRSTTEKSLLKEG
PPO3: PPO3 (Agaricus bisporus, UniProt C7FF04)
Chain of UniProt C7FF04 (whole entry, looked up): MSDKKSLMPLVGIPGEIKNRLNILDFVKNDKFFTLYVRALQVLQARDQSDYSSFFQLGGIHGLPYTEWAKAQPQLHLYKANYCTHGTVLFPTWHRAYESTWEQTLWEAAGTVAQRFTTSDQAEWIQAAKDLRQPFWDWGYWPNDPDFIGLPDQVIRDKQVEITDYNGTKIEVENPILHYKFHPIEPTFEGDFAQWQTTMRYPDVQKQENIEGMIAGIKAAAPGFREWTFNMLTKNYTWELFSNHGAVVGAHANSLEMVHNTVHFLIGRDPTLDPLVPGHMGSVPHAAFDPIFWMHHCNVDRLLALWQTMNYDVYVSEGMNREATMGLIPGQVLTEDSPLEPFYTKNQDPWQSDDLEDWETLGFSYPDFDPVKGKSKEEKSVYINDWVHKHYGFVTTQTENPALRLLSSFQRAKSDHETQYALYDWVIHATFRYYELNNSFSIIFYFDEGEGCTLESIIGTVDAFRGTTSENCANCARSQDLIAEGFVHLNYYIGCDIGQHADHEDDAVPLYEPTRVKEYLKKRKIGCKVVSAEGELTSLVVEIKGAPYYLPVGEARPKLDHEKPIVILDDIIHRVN
Chain of UniProt Q03137 (whole entry, looked up): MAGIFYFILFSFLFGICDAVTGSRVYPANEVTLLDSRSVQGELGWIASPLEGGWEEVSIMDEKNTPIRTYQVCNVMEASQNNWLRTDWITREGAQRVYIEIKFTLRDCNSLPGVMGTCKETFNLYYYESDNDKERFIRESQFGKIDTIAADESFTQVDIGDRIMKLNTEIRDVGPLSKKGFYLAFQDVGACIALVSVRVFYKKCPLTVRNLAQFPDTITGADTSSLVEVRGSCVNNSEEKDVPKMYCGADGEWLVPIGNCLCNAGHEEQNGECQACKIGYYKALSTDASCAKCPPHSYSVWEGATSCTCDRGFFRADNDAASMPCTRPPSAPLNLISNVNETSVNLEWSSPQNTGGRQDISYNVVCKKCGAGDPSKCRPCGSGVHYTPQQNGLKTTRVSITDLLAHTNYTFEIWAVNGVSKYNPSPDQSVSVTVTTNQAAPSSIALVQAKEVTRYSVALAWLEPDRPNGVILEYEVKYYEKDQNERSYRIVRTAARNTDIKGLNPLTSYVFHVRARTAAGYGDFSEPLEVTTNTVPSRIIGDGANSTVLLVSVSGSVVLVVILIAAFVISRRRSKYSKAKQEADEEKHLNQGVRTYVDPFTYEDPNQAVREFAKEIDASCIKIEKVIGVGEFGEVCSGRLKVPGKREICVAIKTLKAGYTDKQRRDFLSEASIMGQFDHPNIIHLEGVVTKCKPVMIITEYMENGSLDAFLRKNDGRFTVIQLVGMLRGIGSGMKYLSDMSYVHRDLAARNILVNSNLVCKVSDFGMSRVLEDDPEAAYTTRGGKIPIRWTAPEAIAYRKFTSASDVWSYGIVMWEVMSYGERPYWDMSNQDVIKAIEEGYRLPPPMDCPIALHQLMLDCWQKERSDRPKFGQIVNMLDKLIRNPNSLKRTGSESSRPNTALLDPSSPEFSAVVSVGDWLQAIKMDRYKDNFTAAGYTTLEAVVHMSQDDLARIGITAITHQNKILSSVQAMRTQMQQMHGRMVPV
Chain of UniProt Q8WTS6 (whole entry, looked up): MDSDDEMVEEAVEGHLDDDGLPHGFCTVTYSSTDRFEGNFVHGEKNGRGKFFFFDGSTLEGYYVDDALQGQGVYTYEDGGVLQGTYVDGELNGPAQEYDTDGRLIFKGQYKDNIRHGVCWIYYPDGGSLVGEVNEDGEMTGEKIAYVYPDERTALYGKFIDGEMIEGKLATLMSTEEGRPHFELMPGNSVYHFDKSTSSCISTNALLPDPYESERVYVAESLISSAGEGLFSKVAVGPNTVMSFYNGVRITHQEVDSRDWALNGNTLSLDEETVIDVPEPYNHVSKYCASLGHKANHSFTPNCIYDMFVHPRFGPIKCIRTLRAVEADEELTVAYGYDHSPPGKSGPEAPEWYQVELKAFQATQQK
Chain of UniProt P25098 (whole entry, looked up): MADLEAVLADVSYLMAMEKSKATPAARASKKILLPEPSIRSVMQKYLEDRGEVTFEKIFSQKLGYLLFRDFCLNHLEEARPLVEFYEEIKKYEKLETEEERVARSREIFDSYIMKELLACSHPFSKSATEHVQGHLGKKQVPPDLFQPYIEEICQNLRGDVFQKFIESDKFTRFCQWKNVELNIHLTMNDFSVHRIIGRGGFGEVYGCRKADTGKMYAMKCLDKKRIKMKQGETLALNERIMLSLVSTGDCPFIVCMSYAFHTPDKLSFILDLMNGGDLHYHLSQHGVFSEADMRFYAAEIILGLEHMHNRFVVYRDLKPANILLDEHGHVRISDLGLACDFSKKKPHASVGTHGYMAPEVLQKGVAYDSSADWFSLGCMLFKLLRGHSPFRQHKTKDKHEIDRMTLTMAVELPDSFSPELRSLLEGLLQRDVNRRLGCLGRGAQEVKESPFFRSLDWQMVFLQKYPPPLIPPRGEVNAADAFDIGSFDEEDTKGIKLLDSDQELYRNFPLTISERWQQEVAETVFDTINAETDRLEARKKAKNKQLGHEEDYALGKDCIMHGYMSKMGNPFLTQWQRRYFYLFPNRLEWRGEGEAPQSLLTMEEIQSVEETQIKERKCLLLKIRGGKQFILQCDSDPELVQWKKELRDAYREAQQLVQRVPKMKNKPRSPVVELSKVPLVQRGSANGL
Chain of UniProt Q96EB6 (whole entry, looked up): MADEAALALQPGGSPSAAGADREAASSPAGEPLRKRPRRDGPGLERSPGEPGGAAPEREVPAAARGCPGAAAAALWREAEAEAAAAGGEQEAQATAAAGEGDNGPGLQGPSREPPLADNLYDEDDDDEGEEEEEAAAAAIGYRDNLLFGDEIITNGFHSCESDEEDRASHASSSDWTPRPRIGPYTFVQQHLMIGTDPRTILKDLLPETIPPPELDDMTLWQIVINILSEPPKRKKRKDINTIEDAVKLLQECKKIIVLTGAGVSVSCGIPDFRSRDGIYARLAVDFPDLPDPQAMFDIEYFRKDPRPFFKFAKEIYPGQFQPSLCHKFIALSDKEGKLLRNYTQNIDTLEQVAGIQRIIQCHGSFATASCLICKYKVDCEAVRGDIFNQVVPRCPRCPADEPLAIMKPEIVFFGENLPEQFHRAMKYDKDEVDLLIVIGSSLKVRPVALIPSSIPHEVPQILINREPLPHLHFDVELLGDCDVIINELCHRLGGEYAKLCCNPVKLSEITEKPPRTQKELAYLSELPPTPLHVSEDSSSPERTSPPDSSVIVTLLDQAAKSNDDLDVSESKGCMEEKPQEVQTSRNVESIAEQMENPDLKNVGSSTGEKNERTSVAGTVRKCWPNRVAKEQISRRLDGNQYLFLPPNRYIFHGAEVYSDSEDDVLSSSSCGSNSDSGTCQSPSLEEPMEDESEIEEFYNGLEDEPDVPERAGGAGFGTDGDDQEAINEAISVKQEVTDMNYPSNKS

Compound	target	assay	system	setting	inhibition
C[C@@]12CC[C@@H]3c4cc(I)c(O)cc4CC[C@H]3[C@@H]1CCC2=O	AKR1C1	enzyme activity, inhibitor, absorbance		10 µM, pH 9	37.8%
CC(C)Oc1cc(NC(=O)[C@H](Cc2ccccc2)NC(=O)c2ccc(N)c(OCc3ccccc3)c2)ccc1C(=O)NCC(=O)O	Histone acetyltransferase p300, with HIF-1α (EP300, Homo sapiens, UniProt Q09472)	fluorescence anisotropy competition		concentration not given	no inhibition
O=C(COc1ccc(Cl)c(Cl)c1)Nc1ccc[n+](Cc2ccc(Cl)c(Cl)c2)c1	TRPV1	calcium influx, antagonist	HeLa transfected	1 µM, together with: capsaicin 5 µM	inhibited
C[C@@H]1O[C@@H](OCc2cc(O)c3c(c2)[C@H]([C@@H]2OC[C@@H](O)[C@H](O)[C@H]2O)c2cccc(O)c2C3=O)[C@H](O)[C@H](O)[C@H]1O	IDO1	kynurenine formation		100 µM	67.8 ± 1.38%
C[C@@]12CC[C@@H]3c4ccc(O)c(Br)c4CC[C@H]3[C@@H]1CCC2=O	AKR1C1	enzyme activity, inhibitor, absorbance		100 µM, pH 9	14.2%
N=C(N)SCc1cccc(CSC(=N)N)c1	IDO1	enzyme activity, inhibitor, biochemical		concentration not given	inactive
C[C@]12CC[C@@H]3c4cc(Br)c(O)cc4CC[C@H]3[C@@H]1CCC2=O	AKR1C1	enzyme activity, inhibitor, absorbance		10 µM, pH 9	51.2%
O=C(O)CN1C(=O)/C(=C/c2c[nH]nc2-c2cc(F)cc(F)c2)SC1=S	SIRT1 (Homo sapiens, UniProt Q96EB6)	enzyme activity, inhibitor, fluorescence		10 µM	< 30%
Cc1cc(NC(=O)[C@H](O)c2cc(F)cc(F)c2)ccc1-c1cnc(N)c(C(=O)NC(C)C)c1	RET (Homo sapiens, UniProt P07949, M918T)	cell-free assay, competition with immobilised ligand		1 µM	> 50%
C[C@H](O)CC(=O)Cc1cccc2oc(CO)cc(=O)c12	IDO1	kynurenine formation		100 µM	9.66 ± 4.7%
CNC(=O)c1ccccc1Oc1nc(Nc2cc(OC)c(OC)c(OC)c2)ncc1Br	MARK3 (Homo sapiens, UniProt P27448)	enzyme activity, inhibitor		1 µM	30 to 50%
CC(=O)c1cnc(N)nc1N1CC[C@H]1c1nn2ccc(Cl)c2c(=O)n1-c1ccccc1	HCN2 (Homo sapiens, UniProt Q9UL51)	ion current, inhibitor		3 µM	< 10%
C[C@@]12CC[C@@H]3c4ccc(O)c(I)c4CC[C@H]3[C@@H]1CCC2=O	AKR1C1	enzyme activity, inhibitor, absorbance		100 µM, pH 9	22.5%
COCC12C(=O)NC3C4(C(OC)CC1O)C1CC5(O)C(OC)C(O)C(OC(C)=O)(C1C5OC(=O)c1ccccc1)C3(O)C(OC)C24 (stereo not shown)	GRK2 (Homo sapiens, UniProt P25098)	enzyme activity		25 µM	inhibited
C[C@]12CCC[C@H]1[C@@H]1CCc3c(cc(Cl)c(O)c3Cl)[C@H]1CC2	AKR1C1	enzyme activity, inhibitor, absorbance		100 µM, pH 9	2.8%
COc1ccc2[nH]cc(C[C@H](NC(=O)CCN)C(=O)N[C@@H](Cc3ccc(Cl)cc3)C(=O)N[C@@H](Cc3ccncc3)C(N)=O)c2c1	Ephrin type-A receptor 4, ectodomain (Epha4, Mus musculus, UniProt Q03137)	ephrin-A5 binding, antagonist, ELISA		500 µM, together with: ephrin-A5-AP	~90%

Compound	target	assay	system	setting	inhibition
COc1ccc(N2C(=O)CSC2c2cccc(Br)c2)c(OC)c1 (stereo not shown)	act2/arp2 (Schizosaccharomyces pombe, UniProt P32390+Q9UUJ1)	actin polymerization, pyrenyl-actin		concentration not given	no inhibition
CCCC[C@H](NC(C)=O)C(=O)N1CCC[C@H]1C(=O)N[C@@H](CO)C(=O)N[C@@H](CO)C(=O)N[C@@H](C)C(=O)N[C@@H](CO)C(=O)N[C@]1(C)CCCCCCC=CCCC[C@@](C)(C(=O)N[C@@H](CCCCN)C(=O)N[C@@H](CCC(=O)O)C(=O)N[C@H](C(=O)N[C@@H](CCC(N)=O)C(N)=O)[C@@H](C)CC)NC(=O)[C@H](CCC(N)=O)NC(=O)[C@H](CCCCN)NC(=O)[C@H](CCCNC(=N)N)NC(=O)[C@H](CC(C)C)NC(=O)[C@H](CC(C)C)NC(=O)[C@H](CCC(N)=O)NC1=O	UBA1 (Homo sapiens, UniProt P22314)	ubiquitin thioester transfer to UBE2D2, inhibitor		concentration not given, staple-scanning screen	inactive
CCCC[C@H](C)/C=C(C)/C=C/C(=O)O	TRPV1	calcium influx, fluorescence calcium		0.1 to 10 µM, together with: 10 µM capsaicin	no effect
Cc1ccc(C2=Nc3ccccc3SC(c3ccc(F)cc3)C2)cc1 (stereo not shown)	PPO3	enzyme activity, inhibitor		25 µg/mL	76%
Oc1c(C(Nc2nc3ccccc3s2)c2cccc(OCc3ccccc3)c2)ccc2cccnc12 (stereo not shown)	Genome polyprotein, protease (Dengue virus type 2, UniProt P14340)	enzyme activity, inhibitor, fluorescence		10 µM	84.6%
COc1cc(C(=O)NC2CCC(N3CCN(CC4CCC5(CCCC5)C4)CC3)CC2)c(F)cc1Nc1ncc2c(n1)N(C1CCCC1(F)F)CC(F)(F)C(=O)N2C (stereo not shown)	ROS1 (Homo sapiens, UniProt P08922)	cell-free assay, TR-FRET		10 µM	0.66%
C[C@@]12CC[C@@H]3c4cc(Br)c(O)c(Br)c4CC[C@H]3[C@@H]1CCC2=O	AKR1C1	enzyme activity, inhibitor, absorbance		10 µM, pH 9	82.5%
Cc1ccc(C2=Nc3ccccc3SC(c3ccc(Cl)cc3)C2)cc1 (stereo not shown)	PPO3	enzyme activity, inhibitor		25 µg/mL	34%
CSCC[C@@H]1NC(=O)[C@H]([C@@H](C)O)NC(=O)[C@H](CCCNC(=N)N)NC(=O)CNC(=O)CC[C@@H](C(=O)N[C@@H](C)C(=O)N[C@@H](CCCNC(=N)N)C(=O)N[C@@H](CCCCN)C(=O)N[C@@H](CO)C(=O)N[C@H](C(=O)NCC(=O)NCC(N)=O)[C@@H](C)O)NC(=O)[C@H](CCC(N)=O)NC1=O	SETD7 (Homo sapiens, UniProt Q8WTS6)	enzyme activity, inhibitor, MALDI-TOF MS		50 µM, 10 min preincubation, 30 min, pH 8, 37 °C, enzyme 500 nM, together with: H3 1-21 peptide, SAM 30 µM	~55%
COc1cc(-c2c(C)cc(O)cc2O)oc(=O)c1	IDO1	kynurenine formation		100 µM	6.36 ± 4.72%
COc1cc2ncc3c(c2cc1-c1cnn(C)c1)n(-c1ccc(C#N)cc1F)c(=O)n3C	ARK5	kinase activity, inhibitor		1 µM	> 50%
C[C@]12CCC[C@H]1[C@@H]1CCc3c(cc(I)c(O)c3I)[C@H]1CC2	AKR1C1	enzyme activity, inhibitor, absorbance		100 µM, pH 9	9.8%
OB(O)c1cnn(-c2cc(Cl)ncn2)c1	PRE2 (Saccharomyces cerevisiae S288c, UniProt P30656)	20S proteasome activity		100 µM, together with: Suc-LLVY-AMC	≤ 20%
COc1cc2c(cc1Cl)[C@H]1CC[C@@]3(C)C(=O)CC[C@H]3[C@@H]1CC2	AKR1C1	enzyme activity, inhibitor, absorbance		10 µM, pH 9	17%
C[C@@H](N)C1CCN(S(=O)(=O)c2cccc3cnccc23)CC1	BMP2K (Homo sapiens, UniProt Q9NSY1)	cell-free assay, competition with immobilised ligand		10 µM	> 95%

For quick reference, copied from above:
Compound	target	assay	system	setting	inhibition
O=C(O)CN1C(=O)/C(=C/c2c[nH]nc2-c2cc(F)cc(F)c2)SC1=S	SIRT1 (Homo sapiens, UniProt Q96EB6)	enzyme activity, inhibitor, fluorescence		10 µM	< 30%
Cc1cc(NC(=O)[C@H](O)c2cc(F)cc(F)c2)ccc1-c1cnc(N)c(C(=O)NC(C)C)c1	RET (Homo sapiens, UniProt P07949, M918T)	cell-free assay, competition with immobilised ligand		1 µM	> 50%
C[C@H](O)CC(=O)Cc1cccc2oc(CO)cc(=O)c12	IDO1	kynurenine formation		100 µM	9.66 ± 4.7%
CNC(=O)c1ccccc1Oc1nc(Nc2cc(OC)c(OC)c(OC)c2)ncc1Br	MARK3 (Homo sapiens, UniProt P27448)	enzyme activity, inhibitor		1 µM	30 to 50%
CC(=O)c1cnc(N)nc1N1CC[C@H]1c1nn2ccc(Cl)c2c(=O)n1-c1ccccc1	HCN2 (Homo sapiens, UniProt Q9UL51)	ion current, inhibitor		3 µM	< 10%
